Measurements of several laboratories.

Structure (SMILES) | cell line | test | setting | IC50
Cc1c(C)c2c(c(C)c1O)CCC(C)(COc1ccc(CC3SC(=O)NC3=O)cc1)O2 (centres unmarked) | hepatocytes, iPSC-derived, line W3 | cell viability, RealTime-Glo MT | 72 h, differentiation day 23 | 140 µM
C=CC(=O)N1CCC([C@@H]2CCNc3c(C(N)=O)c(-c4ccc(Oc5ccccc5)cc4)nn32)CC1 | TMD8 wild-type | calcium flux, FLIPR | 4 h preincubation, together with: anti-IgM | 0.0015 µM
CC(=O)c1c(O)c(C)c(O)c2c1OC1=CC(=O)C(C(C)=O)C(=O)C12C (single isomer, unassigned; (+)) | hepatocytes, iPSC-derived, line W3 | cell viability | 72 h | 43 µM
O=C(Nc1c(Cl)cncc1Cl)c1ccc(OC(F)F)c(OCC2CC2)c1 | PBMC | cytokine release, MSD, refers to: IL-1β | 24 h, together with: anti-CD3ε/anti-CD28 | 0.0034 µM
Cc1c(C(=O)O)ccc2c3n(nc12)[C@@H]1[C@H](C3)N(CC2CC2)[C@@]2(C(=O)Nc3cc(Cl)ccc32)[C@H]1c1cccc(Cl)c1F | SNU-719 (MDM2 non-amplified) | cell proliferation, alamarBlue | 120 h | 0.013 µM
CC(=O)[C@]1(O)Cc2c(O)c3c(c(O)c2[C@@H](O[C@H]2C[C@H](N)[C@H](O)[C@H](C)O2)C1)C(=O)c1ccccc1C3=O | primary human intestinal proliferative cells | total cell number (DAPI) | 48 h | 0.547 µM
CC#CC(=O)N1CCC[C@H]1c1nc(-c2ccc(C(=O)Nc3ccccn3)cc2)c2c(N)nccn12 | TMD8 wild-type | calcium flux, FLIPR | 1 h preincubation, together with: anti-IgM | 0.453 µM
CCOc1cc([C@@H](CS(C)(=O)=O)N2C(=O)c3cccc(NC(C)=O)c3C2=O)ccc1OC | PBMC | cytokine release, MSD, refers to: IL-2 | 24 h, together with: anti-CD3ε/anti-CD28 | 0.029 µM
C=CC(=O)Nc1cccc(Oc2nc(Nc3ccc(N4CCN(C)CC4)cc3)nc3ccoc23)c1 | TMD8 wild-type | calcium flux, FLIPR | 1 h preincubation, together with: anti-IgM | 0.0506 µM
O=C(O)COCC(=O)O | hepatocytes, iPSC-derived, line L1 | cell viability, RealTime-Glo MT | 48 h, differentiation day 23 | 7110 µM
CCCCN1C[C@H](O)[C@@H](O)[C@@H](O)[C@H]1CO | sample H patient fibroblasts | Gb3 level lowering, LC-MS/MS, refers to: Gb3 d18:1/20:0 | 216 h | 17.3 µM

Excerpt of the above:
Structure (SMILES) | cell line | test | setting | IC50
CC#CC(=O)N1CCC[C@H]1c1nc(-c2ccc(C(=O)Nc3ccccn3)cc2)c2c(N)nccn12 | TMD8 wild-type | calcium flux, FLIPR | 1 h preincubation, together with: anti-IgM | 0.453 µM
